{"data": "Measured values from different studies", "note": "“And” joins repeats or separate records; there may be more than shown. ± gives the spread as reported."}
{"Compound": "CCN(CC)c1nc(-c2ccccc2)nc2[nH]nc(Nc3ccc(F)cc3)c12", "target or system": "HeLa Ohio", "setting": "72 h", "measurement": "CC50", "value": "> 133 µM"}
{"Compound": "COc1cccc(OC)c1-c1cc(C(=O)NC2(C(=O)O)C3CC4CC(C3)CC2C4)nn1-c1ccc(C(=O)N(C)CCCN(C)CCCN(C)C(=O)[C@H](CCCCNC(=O)[C@H](CC(C)C)NC(=O)C2OC2C(=O)O)NC(=O)CN2CCN(CC(=O)[O-])CCN(CC(=O)[O-])CCN(CC(=O)[O-])CC2)cc1C(C)C.[177Lu+3] (mixture of isomers)", "target or system": "HT-29 tumour model", "test system": "host not given, pancreas", "setting": "72 h, tumour-bearing", "measurement": "tracer uptake", "value": "0.2 %ID/g"}
{"Compound": "O=C([O-])CN1CCN(CC(=O)[O-])CCN(Cc2cccc(C(=O)[O-])n2)CC1.[18F-].[Sc+3]", "test system": "mouse, liver", "setting": "intravenous, 1 h", "measurement": "tracer uptake", "value": "0.48 %ID/g"}
{"Compound": "O=C1NC2(CC2)COc2ncc(F)cc2[C@H]2COCCN2c2ccn3ncc1c3n2", "target or system": "Salmonella typhimurium", "assay": "Ames test", "test system": "TA102", "setting": "5000 µg/plate, 48 h, together with: without S9", "measurement": "revertant colonies", "value": "395 ± 9 revertants/plate"}
{"Compound": "O=C(Nc1cnccc1-c1ccc([18F])nc1)c1ccnc(NC(=O)C2CC2)c1", "test system": "mice, transgenic, GSK-3β, early-stage, blood", "setting": "intravenous, dose not given, 120 min, together with: tariquidar 15 mg/kg i.v. pre-dose", "measurement": "SUV", "value": 0.155}
{"Compound": "CC(C)OCCOCc1ccc(OCC(O)CN(N=O)C(C)C)cc1 (stereo not shown)", "target or system": "Salmonella typhimurium", "assay": "Ames test", "test system": "TA1535", "setting": "500 µg/plate, 30 % rat S9", "scale": "reference: solvent control", "measurement": "revertant fold increase", "value": "1.2 fold"}
{"Compound": "N#C[C@@H]1CCCN1C(=O)CNC(=O)c1ccnc2ccc(OCCCN3CCN(C(=O)CCc4ccc5c(c4)CN4CCN(Cc6cc(CCC(=O)O)ccc6O)CC(=O)[O][Al-]([18F])([O]C(=O)C4)[O]5)CC3)cc12 (stereo partly shown)", "target or system": "U-87 MG tumour model", "test system": "host not given, bone", "setting": "2 h, tumour-bearing", "measurement": "tracer uptake", "value": "9.3 %ID/g"}
{"Compound": "C=CC(=O)Nc1cc(Nc2nccc(-c3cn(C)c4ccccc34)n2)c(OCC(F)(F)F)nc1N(C)CCN(C)C", "target or system": "human hepatocytes lot HC3-31", "assay": "CYP1A2 enzyme activity, inducer", "setting": "1 µM", "scale": "reference: omeprazole 100 µM", "measurement": "induction", "value": "9.32%"}
{"Compound": "O=C1C2CC3CC1CC(C(=O)N1CCN(c4ccc([N+](=O)[O-])c5ncccc45)CC1)(C3)C2", "target or system": "Escherichia coli", "assay": "Ames test", "test system": "WP2 uvrA pKM101", "setting": "0.13 µg/well, with S9", "scale": "reference: vehicle", "measurement": "revertant fold increase", "value": 1}
{"Compound": "Nc1nc(-c2ccccc2)nc2[nH]nc(Nc3c(F)cccc3F)c12", "target or system": "HeLa Ohio", "setting": "72 h", "measurement": "CC50", "value": "> 148 µM"}
{"Compound": "OC(Cc1cc(-c2ccc(C(O)C(F)(F)F)s2)sc1-c1ccc(-c2sc(-c3ccc(C(O)C(F)(F)F)s3)cc2CC(O)C(F)(F)F)s1)C(F)(F)F (stereo not shown)", "target or system": "primary human fetal neurons", "assay": "LC-MS/MS", "setting": "4 µM, 60 min, replicate 3", "measurement": "amount in cell extract", "value": "0.02 nmol and 0.01 nmol"}
{"Compound": "C/C(N)=N/C(=N\\S(=O)(=O)c1ccc(C(F)(F)F)cc1)N1C[C@H](c2ccccc2)C(c2ccc(Cl)cc2)=N1", "assay": "metabolic stability", "test system": "monkey, liver cytosol", "measurement": "half-life", "value": "> 2 h"}
{"Compound": "Cc1nc(N)c2c(Nc3ccc(F)cc3)n[nH]c2n1", "target or system": "HeLa Ohio", "setting": "72 h", "measurement": "CC50", "value": "65.8 µM"}
{"Compound": "CC(C)Cc1ccc(C(C)C(=O)N[C@@H](CCCCNC(=O)CCOCCOCCOCCOCCOCCOCCNC(=O)CN2CCN(CC(=O)[O-])CCN(CC(=O)[O-])CCN(CC(=O)[O-])CC2)C(=O)Nc2cccc3c(C(=O)NCC(=O)N4CC(F)(F)C[C@H]4C#N)ccnc23)cc1.[177Lu+3] (stereo partly shown)", "target or system": "U-87 MG tumour model", "test system": "host not given, stomach", "setting": "4 h, tumour-bearing", "measurement": "tracer uptake", "value": "1.8 %ID/g"}
{"Compound": "CCN(CC)CC#CCNc1ccnc2cc(Cl)ccc12", "target or system": "Salmonella typhimurium", "assay": "mini-Ames test", "test system": "TA102", "setting": "500.0 µg/well, without S9", "measurement": "revertants", "value": "72 revertants/well and 69 revertants/well"}
{"Compound": "Nc1nc(-c2ccncc2)nc2[nH]nc(Nc3ccc(F)cc3)c12", "target or system": "HeLa Ohio", "setting": "72 h", "measurement": "CC50", "value": "> 156 µM"}
{"Compound": "N#C[C@@H]1CC(F)(F)CN1C(=O)CNC(=O)c1ccnc2c(NC(=O)[C@H](CCCCNC(=O)CCOCCOCCOCCOCCOCCOCCNC(=O)CN3CCN(CC(=O)[O-])CCN(CC(=O)[O-])CCN(CC(=O)[O-])CC3)NC(=O)CCCc3ccc(I)cc3)cccc12.[177Lu+3]", "target or system": "U-87 MG tumour model", "test system": "host not given, tumour", "setting": "96 h, tumour-bearing", "measurement": "tracer uptake", "value": "1.53 %ID/g"}
{"Compound": "Nc1nc(-c2ccccc2)nc2[nH]nc(Nc3ccc(F)c(F)c3F)c12", "target or system": "HeLa Ohio", "setting": "72 h", "measurement": "CC50", "value": "> 140 µM"}
{"Compound": "CNC(=O)C1CCCN(C(=O)C2CC3CCC2N3C(=O)[C@@H]2C[C@@H](O)CN2C(=O)NCc2cccc(Cl)c2F)C1 (mixture of isomers)", "target or system": "CYP3A4 (human)", "assay": "inhibitor, time-dependent inhibition", "setting": "50 µM, preincubated with NADPH, together with: testosterone substrate", "scale": "reference: negative control", "measurement": "remaining activity", "value": "97.2%"}
{"Compound": "CCc1ccc(-c2nc(N)c3c(Nc4ccc(F)cc4)n[nH]c3n2)cc1", "target or system": "HeLa Ohio", "setting": "72 h", "measurement": "CC50", "value": "88.7 µM"}
{"Compound": "CN(Cc1ccccc1)C(=O)CN1CCN(CC(=O)[O-])CCN(CC(=O)[O-])CC1.[18F-].[Sc+3]", "test system": "mouse, brain", "setting": "intravenous, 1 h", "measurement": "tracer uptake", "value": "0.06 %ID/g"}
{"Compound": "Cn1nc(Nc2ccc(F)cc2)c2c(N)nc(-c3ccccc3)nc21", "target or system": "HeLa Ohio", "setting": "72 h", "measurement": "CC50", "value": "> 150 µM"}
{"Compound": "N#C[C@@H]1CC(F)(F)CN1C(=O)CNC(=O)c1ccnc2c(NC(=O)[C@@H](N)CCCCNC(=O)CCOCCOCCOCCOCCOCCOCCNC(=O)CN3CCN(CC(=O)[O-])CCN(CC(=O)[O-])CCN(CC(=O)[O-])CC3)cccc12.[177Lu+3]", "target or system": "U-87 MG tumour model", "test system": "host not given, heart", "setting": "24 h, tumour-bearing", "measurement": "tracer uptake", "value": "0.02 %ID/g"}
{"Compound": "Cc1ccc(Nc2n[nH]c3nc(-c4cccc(F)c4)nc(N)c23)cc1", "target or system": "HeLa Ohio", "setting": "72 h", "measurement": "CC50", "value": "36.2 µM"}
{"Compound": "CN(Cc1ccccc1)C(=O)CN1CCN(CC(=O)[O-])CCN(Cc2cccc(C(=O)[O-])n2)CC1.[18F-].[Sc+3]", "test system": "mouse, blood", "setting": "intravenous, 1 h", "measurement": "tracer uptake", "value": "0.35 %ID/g"}
{"note": "A few entries again:"}
{"Compound": "N#C[C@@H]1CCCN1C(=O)CNC(=O)c1ccnc2ccc(OCCCN3CCN(C(=O)CCc4ccc5c(c4)CN4CCN(Cc6cc(CCC(=O)O)ccc6O)CC(=O)[O][Al-]([18F])([O]C(=O)C4)[O]5)CC3)cc12 (stereo partly shown)", "target or system": "U-87 MG tumour model", "test system": "host not given, bone", "setting": "2 h, tumour-bearing", "measurement": "tracer uptake", "value": "9.3 %ID/g"}
{"Compound": "C=CC(=O)Nc1cc(Nc2nccc(-c3cn(C)c4ccccc34)n2)c(OCC(F)(F)F)nc1N(C)CCN(C)C", "target or system": "human hepatocytes lot HC3-31", "assay": "CYP1A2 enzyme activity, inducer", "setting": "1 µM", "scale": "reference: omeprazole 100 µM", "measurement": "induction", "value": "9.32%"}
{"Compound": "O=C1C2CC3CC1CC(C(=O)N1CCN(c4ccc([N+](=O)[O-])c5ncccc45)CC1)(C3)C2", "target or system": "Escherichia coli", "assay": "Ames test", "test system": "WP2 uvrA pKM101", "setting": "0.13 µg/well, with S9", "scale": "reference: vehicle", "measurement": "revertant fold increase", "value": 1}
{"Compound": "Nc1nc(-c2ccccc2)nc2[nH]nc(Nc3c(F)cccc3F)c12", "target or system": "HeLa Ohio", "setting": "72 h", "measurement": "CC50", "value": "> 148 µM"}
